Measurements pooled from the literature.
Every numbered part comes from another study and shows a few of its results, in no order.

Block 1
Target: Sal-like protein 4, full length isoform A (SALL4, Homo sapiens, UniProt Q9UJQ4, residues 1-1053)
UniProt Q9UJQ4, sequence (whole entry, looked up): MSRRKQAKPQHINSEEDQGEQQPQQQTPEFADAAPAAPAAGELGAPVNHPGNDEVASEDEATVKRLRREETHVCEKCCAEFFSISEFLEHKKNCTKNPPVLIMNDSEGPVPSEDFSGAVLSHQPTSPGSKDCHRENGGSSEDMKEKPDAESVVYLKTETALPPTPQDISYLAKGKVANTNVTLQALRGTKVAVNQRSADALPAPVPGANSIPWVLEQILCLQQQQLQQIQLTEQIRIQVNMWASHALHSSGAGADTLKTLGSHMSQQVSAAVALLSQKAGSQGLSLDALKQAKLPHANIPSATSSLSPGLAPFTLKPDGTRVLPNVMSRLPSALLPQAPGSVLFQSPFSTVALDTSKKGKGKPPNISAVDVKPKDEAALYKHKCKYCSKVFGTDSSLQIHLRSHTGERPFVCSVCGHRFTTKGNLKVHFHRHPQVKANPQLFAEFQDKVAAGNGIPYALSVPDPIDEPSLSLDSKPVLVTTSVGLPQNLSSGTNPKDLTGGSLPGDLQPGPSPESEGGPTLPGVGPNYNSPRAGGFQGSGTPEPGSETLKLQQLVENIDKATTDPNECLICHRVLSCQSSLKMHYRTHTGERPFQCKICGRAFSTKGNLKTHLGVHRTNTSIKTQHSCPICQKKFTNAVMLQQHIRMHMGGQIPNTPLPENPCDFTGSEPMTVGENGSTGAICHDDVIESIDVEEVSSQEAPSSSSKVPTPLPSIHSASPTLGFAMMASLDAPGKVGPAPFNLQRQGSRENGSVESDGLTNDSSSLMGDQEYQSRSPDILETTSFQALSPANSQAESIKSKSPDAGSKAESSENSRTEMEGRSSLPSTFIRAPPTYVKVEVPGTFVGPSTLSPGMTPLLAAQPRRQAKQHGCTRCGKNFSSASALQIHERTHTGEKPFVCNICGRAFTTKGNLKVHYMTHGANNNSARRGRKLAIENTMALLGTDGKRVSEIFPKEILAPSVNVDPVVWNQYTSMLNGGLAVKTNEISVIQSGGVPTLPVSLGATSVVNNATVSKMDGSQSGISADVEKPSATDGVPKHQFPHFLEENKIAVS
Method: universal PBM
Molecule type: double-stranded DNA, one strand shown
Medium: in vitro
Tested at: 600 nM
Setting: 8-mer, flanks averaged, mean of replicates
Direction: higher = stronger binding
Measurement: E-score
CGACTGAG: -0.241
GTACGTAA: 0.197
TAACTAAA: 0.207
ACCTCTGG: -0.0543
CGAAAGTC: -0.0386
ACCCCATG: -0.0941
ACATATCG: 0.114
CACATAGG: -0.012
AGATGGAG: -0.0608
GGGTCGAC: -0.365
CAACGTCC: -0.233
ACTACCGC: 0.00894
ACATCTTA: 0.097

Block 2
Target: RING finger protein unkempt homolog, zinc fingers 1-6, SBP tag (UNK, Homo sapiens, UniProt Q9C0B0, residues 30-357)
UniProt Q9C0B0, sequence (30-357, looked up): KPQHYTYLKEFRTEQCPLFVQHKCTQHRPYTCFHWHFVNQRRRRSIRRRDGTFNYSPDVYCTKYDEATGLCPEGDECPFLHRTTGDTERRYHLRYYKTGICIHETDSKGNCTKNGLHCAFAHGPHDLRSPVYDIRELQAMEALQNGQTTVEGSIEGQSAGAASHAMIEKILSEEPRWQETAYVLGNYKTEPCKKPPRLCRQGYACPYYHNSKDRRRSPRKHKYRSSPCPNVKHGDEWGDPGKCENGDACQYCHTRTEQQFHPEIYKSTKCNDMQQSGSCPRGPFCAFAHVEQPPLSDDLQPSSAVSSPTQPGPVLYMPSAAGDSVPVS
Method: RNA Bind-n-Seq
Molecule type: RNA
Medium: in vitro
Tested at: 100 nM
Setting: RNA with constant flanks, vertebrate orthologous sites, ends assumed
Reference: input RNA pool
Direction: higher = stronger binding
Measurement: bound/input enrichment
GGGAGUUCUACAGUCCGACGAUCAGCAGGCCAGGGAUUGAGGCCCACCUUCCCACAUGUGCCGAGUCGGUAUGGAAACUACAGGACGGGGCAGCCGAGACCUUGAAGGACUCUAACUCAUUUUUAUGAGCAAUGUCGACUCCUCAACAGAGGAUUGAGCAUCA: 0.123 ratio
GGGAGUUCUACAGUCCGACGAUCUAUCUUUAGGAUGAAGCUCUUACACCAAGUGUCACGAGUCUGGAGAACAGACGGGUUGAGUAGUUGUUCUUAUAAAUUAGUAUCCGUGGAACACAAUCCUUUGUAUGUCAACAUCACAGUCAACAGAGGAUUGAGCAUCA: 0.542 ratio
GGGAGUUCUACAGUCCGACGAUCGCUGUGUAGAGUAGGGCCGUGUUCUCCUUAGGAUGUUGCUUCUUGAUUUUUUUUUUUUUUUAGGGGUGGGUCAGGGUUGUGACACACCAGCCCAGGUGAGAGCUGAUGCGGUUCACCUCACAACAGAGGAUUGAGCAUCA: 2.64 ratio
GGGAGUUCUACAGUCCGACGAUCACAUCAUGAAUUACUGUCACUUUGGUAGCAGGUAGAACAUUUUGCAAGAAAUGUAUACACCUAGUUAAGCUGAAUAUGAUAUAUUUUUAUUAGCCUGUAAAUAAAUAUACUCUUCUGCAUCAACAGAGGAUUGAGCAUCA: 0.925 ratio
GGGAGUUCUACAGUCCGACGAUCUUCAGGUACAACGGACUGGUUCCCAGCAUUCCUUACACAGUUAUUUAUCAAGUACAAGUGUAGUUAAUUUUCAGGAUACAUCCAGGCAGUCAGCAUUAUCUUGCAGUCCAGUUGGAGAUGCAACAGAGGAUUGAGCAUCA: 0.913 ratio
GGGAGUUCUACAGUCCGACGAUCUUACAGUCAUUGAUGGACUCUAUUUUUUUAUUAUUACUUGGACCUUGGUCGUUUUUAUACUAGCAAAAUGUCUUGUUUUAAUUUGUGUUUUUUUUUGGGGGGGGGAGGGAGUGAACUUGCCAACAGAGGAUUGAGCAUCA: 2.94 ratio
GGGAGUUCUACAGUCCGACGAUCAAGCCCUGUGAAGGUCUACUGACCGCUCACUAUUGUCUGGUAUCUGUAAACACUUCUGUUUAGUCCCUUCAUUGUAUAAUUGAUGUUCUUUAAAACUGUCGAUGUAAAACAGGGCUUAUGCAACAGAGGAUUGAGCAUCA: 0.604 ratio

Block 3
Target: Histone acetyltransferase KAT6A, winged helix 2, GST fusion (KAT6A, Homo sapiens, UniProt Q92794, residues 85-181)
Method: protein binding microarray
Molecule type: double-stranded DNA, one strand shown
Medium: in vitro
Tested at: not given
Setting: 8-mer, flanks averaged, mean of 2 arrays, mostly near background
Reference: not given
Direction: higher = stronger binding
Measurement: E-score
Construct (chain): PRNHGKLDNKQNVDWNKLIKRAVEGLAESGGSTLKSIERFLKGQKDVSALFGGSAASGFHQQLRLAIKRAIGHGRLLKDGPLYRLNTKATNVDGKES
AAACACAG: 0.0427
ACCGTCTG: -0.125
AACAGGCA: -0.0929
AAGTGGGG: -0.194
CGACAATC: -0.0324
ACTGCTCG: 0.00535
ATACCATA: -0.0759
ATGCACTG: 0.108

Further values, each from its own experiment
PhoQ, residues 284 288 289 292 302 303 SLSLLA — fold induction (PhoP, residues 12 14 15 18 19 NHTVL (Escherichia coli, UniProt P23836); Sort-seq, item: YFP reporter; E. coli; PhoQ-PhoP variant library, with: 10 µM Mg2+; reference: high Mg2+ state, higher = stronger signaling): 2.88

For quick reference, copied from above (block 3):
CGACAATC: -0.0324
ACTGCTCG: 0.00535
